Published values of several laboratories.
Values joined by “and” are separate records of one study, mostly repeats; a detail may differ. ± marks the error that the study gave.

| Substance | target or system | test | system | setting | scale | endpoint | result |
| --- | --- | --- | --- | --- | --- | --- | --- |
| CC(=O)O[C@@H]1C[C@H]2O[C@@H]3C=C(C)CC[C@]3(C)[C@]1(C)[C@]21CO1 | Candida albicans | biofilm formation, XTT | SC5314 | 24 h, 37 °C | – | IC50 | 0.529 µM |
| Cc1cccc(NC(=O)CS(=O)(=O)c2nc(-c3ccccc3)cn2-c2ccc(Cl)cc2)c1C | VSVΔG pseudotyped with SARS-CoV-2 S | pseudovirus infection | Delta | tested range 0.3125 to 40 µM | – | IC50 | 0.49 µM |
| CC(=O)N[C@H]1[C@H]([C@H](O)[C@H](O)CO)OC(C(=O)O)=C[C@@H]1N=C(N)N | influenza A virus H7N9 | viral replication | – | – | – | IC50 | 0.0435 µM |
| CN1CCN(C(c2ccccc2)c2ccccc2)CC1 | Marburg virus | HIV/MARV pseudovirion entry | A549 | 48 h | – | IC50 | 18.9 ± 1.5 µM |
| Cc1ccc(C(=O)Nc2ccc(S(=O)(=O)O)c3cc(S(=O)(=O)O)cc(S(=O)(=O)O)c23)cc1NC(=O)c1cccc(NC(=O)Nc2cccc(C(=O)Nc3cc(C(=O)Nc4ccc(S(=O)(=O)O)c5cc(S(=O)(=O)O)cc(S(=O)(=O)O)c45)ccc3C)c2)c1 | Human immunodeficiency virus 1 | viral entry, inhibitor | Calu-3 | pseudovirus | – | IC50 | 11.9 µM |
| N#Cc1cn([C@@H]2O[C@H](COCc3ccccc3)[C@@H](OCc3ccccc3)[C@H](OCc3ccccc3)[C@H]2I)c(=O)[nH]c1=O | Japanese encephalitis virus | viral replication, inhibitor, ELISA | Vero | – | – | IC50 | 4.2 µM |
| COc1cc2c(O)c3c(c(-c4ccc5c(c4)OCO5)c2cc1OC)C(=O)OC3 | VSV pseudotyped with Ebola virus GP | viral entry, refers to: GFP | – | – | – | IC50 | 0.847 ± 0.125 µM |
| NC(=O)c1ncn([C@@H]2O[C@H](CO)[C@@H](O)[C@H]2O)c1O | Severe acute respiratory syndrome coronavirus | viral replication, inhibitor | Vero 76 | – | – | IC50 | > 40 µM |
| O=C(NC1CCCCC1)C(c1cccs1)N(Cc1ccc2c(c1)OCO2)C(=O)Cc1c[nH]c2ccccc12 (centres unmarked) | Rickettsia canadensis | bacterial growth | Vero | – | – | IC50 | 3.4 µM |
| C#CCOc1c2c(c(-c3ccc4c(c3)OCO4)c3cc(OC)c(OC)cc13)C(=O)OC2 | VSV pseudotyped with Ebola virus GP | viral entry, refers to: GFP | HeLa | – | – | IC50 | 0.175 ± 0.0217 µM |
| Nc1ccn(C[C@@H](CO)OCP(=O)(O)O)c(=O)n1 | vaccinia virus | viral replication | – | – | – | IC50 | 20 µM |
| C#CCCCOc1c2c(c(-c3ccc4c(c3)OCO4)c3cc(OC)c(OC)cc13)C(=O)OC2 | VSV pseudotyped with Ebola virus GP | viral entry, refers to: GFP | – | – | – | IC50 | 0.0732 ± 0.0119 µM |
| Cc1cccc(CN2CCN(C(c3ccccc3)c3ccc(Cl)cc3)CC2)c1 (centres unmarked) | Ebola virus Zaire | HIV/EBOV pseudovirion entry | A549 | 48 h | – | IC50 | 6.7 ± 1.8 µM |
| CNC(=O)[C@@H](NC(=O)[C@H](CC(C)C)[C@H](O)C(=O)NO)C(C)(C)C | human fibrinogen | SDS-PAGE | Daboia russelii | concentration not given, unit not given, with: TN venom | reference: untreated fibrinogen | remaining fibrinogen Bβ chain | 0.419 |
| NCCCCCc1cnc[nH]1 | Marburg virus | HIV/MARV pseudovirion entry | A549 | 48 h | – | IC50 | > 100 µM |
| CC[C@H](C)[C@H](NC(=O)[C@H](CC(C)C)NC(=O)[C@H](Cc1c[nH]c2ccccc12)NC(=O)[C@H](CCC(N)=O)NC(=O)[C@@H](NC(=O)[C@H](Cc1ccccc1)NC(=O)[C@H](C)NC(=O)[C@H](CCCCNC(=O)COCCOCCNC(=O)COCCOCCNC(=O)CC[C@H](NC(=O)CCCCCCCCCCCCCCCCCCC(=O)O)C(=O)O)NC(=O)[C@H](CCC(N)=O)NC(=O)[C@H](C)NC(=O)[C@@H](NC(=O)[C@H](CCCCN)NC(=O)[C@H](CC(=O)O)NC(=O)[C@H](CC(C)C)NC(=O)C(C)(C)NC(=O)[C@@H](NC(=O)[C@H](CO)NC(=O)[C@H](Cc1ccc(O)cc1)NC(=O)[C@H](CC(=O)O)NC(=O)[C@H](CO)NC(=O)[C@@H](NC(=O)[C@H](Cc1ccccc1)NC(=O)[C@@H](NC(=O)CNC(=O)[C@H](CCC(=O)O)NC(=O)C(C)(C)NC(=O)[C@@H](N)Cc1ccc(O)cc1)[C@@H](C)O)[C@@H](C)O)[C@@H](C)CC)[C@@H](C)CC)C(C)C)C(=O)N[C@@H](C)C(=O)NCC(=O)NCC(=O)N1CCC[C@H]1C(=O)N[C@@H](CO)C(=O)N[C@@H](CO)C(=O)NCC(=O)N[C@@H](C)C(=O)N1CCC[C@H]1C(=O)N1CCC[C@H]1C(=O)N1CCC[C@H]1C(=O)N[C@@H](CO)C(N)=O | – | – | patients with type 2 diabetes, serum | 5/5/10/15 mg escalating, baseline | – | total ALT | 24.4 ± 10.9 U/L |
| O=C(O)COCCN1CCN(C(c2ccccc2)c2ccc(Cl)cc2)CC1 (centres unmarked) | Marburg virus | HIV/MARV pseudovirion entry | A549 | 48 h | – | IC50 | > 100 µM |
| COc1cc2c(O)c3c(c(-c4ccc5c(c4)OCO5)c2cc1OC)C(=O)N(/N=C/c1c(F)c(F)c(F)c(F)c1F)C3 | VSV pseudotyped with Ebola virus GP | viral entry, refers to: GFP | HeLa | – | – | IC50 | 8.74 ± 2.18 µM |
| CC(C)(C)c1ccc(CN2CCN(C(c3ccccc3)c3ccc(Cl)cc3)CC2)cc1 (centres unmarked) | Ebola virus Zaire | HIV/EBOV pseudovirion entry | A549 | 48 h | – | IC50 | 12.3 ± 5 µM |
| COc1cc2c(OCCCN3CCN(CCO)CC3)c3c(c(-c4ccc5c(c4)OCO5)c2cc1OC)C(=O)OC3 | VSV pseudotyped with Ebola virus GP | viral entry, refers to: GFP | – | – | – | IC50 | 0.0762 ± 0.0146 µM |
| CN1CCN(C(c2ccccc2)c2ccc(Cl)cc2)CC1 (centres unmarked) | Marburg virus | HIV/MARV pseudovirion entry | A549 | 48 h | – | IC50 | 4.6 ± 0.1 µM |
| ergoloid mesylates | SARS-CoV-2 Delta | viral replication, NanoLuc reporter virus | – | – | – | IC50 | 7.95 µM |
| CN(C)CCOC(C)(c1ccccc1)c1ccc(Cl)cc1 (centres unmarked) | Ebola virus Zaire | HIV/EBOV pseudovirion entry | A549 | 48 h | – | IC50 | 1.1 ± 0.5 µM |
| CCOc1ccc(NC(=O)c2cnn(-c3ccc(C)c(Cl)c3)c2C2CCNCC2)cc1 | SARS-CoV-2 | cytopathic effect, cell-based CPE | USA_WA1/2020 | – | – | AC50 | 14.1 µM |

| Substance | target or system | test | system | setting | scale | endpoint | result |
| --- | --- | --- | --- | --- | --- | --- | --- |
| COC(=O)[C@@H](N)[C@@H](C)OP1(=O)CO[C@@H](Cn2cnc3c(N)ncnc32)CO1 (some centres unmarked) | vaccinia virus | viral replication | – | – | – | IC50 | 30 µM |
| CC(C)(C(=O)O)c1ccc(C(O)CCCN2CCC(C(O)(c3ccccc3)c3ccccc3)CC2)cc1 (centres unmarked) | Ebola virus Zaire | HIV/EBOV pseudovirion entry | A549 | 48 h | – | IC50 | > 100 µM |
| CO/C1=C\C(C)=C\[C@@H](C)[C@@H](O)[C@@H](C)C/C(C)=C/C=C/[C@H](OC)[C@@H]([C@@H](C)[C@@H](O)[C@H](C)[C@@]2(O)C[C@@H](O)[C@H](C)[C@@H](C(C)C)O2)OC1=O | VSV pseudotyped with Ebola virus GP | viral entry, refers to: GFP | – | – | – | IC50 | 0.0149 ± 0.00893 µM |
| COC(=O)[C@@H](N)Cc1ccc(OP2(=O)CO[C@@H](Cn3ccc(N)nc3=O)CO2)cc1 (some centres unmarked) | cowpox virus | viral replication | – | – | – | IC50 | 50 µM |
| CCC(CCCCCCCCCCc1cc(O)cc(O)c1)C(C)C (centres unmarked) | Bacillus anthracis | – | 34F2 | – | – | IC50 | 15.6 µM |
| N=C(N)c1ncn([C@@H]2O[C@H](CO)[C@@H](O)[C@H]2O)n1 | Severe acute respiratory syndrome coronavirus | viral replication, inhibitor | Vero 76 | – | – | IC50 | > 410 µM |
| Cn1cnc(Cn2c(=O)[nH]/c(=N\c3cc4cn(C)nc4cc3Cl)n(Cc3cc(F)c(F)cc3F)c2=O)n1 | – | – | human, severe renal impairment, plasma | oral, 375 mg single dose | – | terminal elimination rate constant | 2.72e-06 s⁻¹ |
| CCCCN(C)CCCNC(=O)c1ccc2nc(N3CCCCC3)sc2c1 | SARS-CoV-2 | cytopathic effect | USA_WA1/2020 | retest, 8-point, duplicates | – | efficacy | 0% |
| Nc1ncnc2c([C@@H]3N[C@H](CO)[C@@H](O)[C@H]3O)c[nH]c12 | Zaire ebolavirus | viral replication | HeLa, Kikwit | 50 µM | – | inhibition | 99.9% |
| CC1=C[C@H]2O[C@@H]3C[C@H]4OC(=O)/C=C\C=C\C(=O)OCC/C(C)=C/C(=O)OC[C@@]2(CC1)[C@]4(C)[C@]31CO1 | Plasmodium falciparum | parasite proliferation, SYBR Green | 3D7 | 72 h | – | IC50 | 0.0024 µM |
| O=C1Nc2ccccc2/C1=C1\Nc2ccccc2\C1=N/O | SARS-CoV-2 Omicron | viral replication, cell-based | – | – | – | IC50 | 9.76 µM |
| O=c1[nH]c(Nc2cc(Cl)cc(Cl)c2)nc2cccc(O)c12 | Middle East respiratory syndrome-related coronavirus | viral replication | Vero | – | – | IC50 | < 1.1 µM |
| CC(C)CNC(=O)[C@@H](N)Cc1ccc(OP(=O)(O)CO[C@H](CO)Cn2cnc3c(N)ncnc32)cc1 | cowpox virus | viral replication | – | – | – | IC50 | 3 µM |
| CCOCOC[C@H](C[C@H](C)C(=O)NO)NC(=O)c1ccc(Oc2ccccc2)cc1 | SARS-CoV-2 pseudovirus | viral entry | HeLa-ACE2, Delta spike | – | – | IC50 | > 10 µM |
| Nc1ccn([C@@H]2O[C@H](CO)[C@@H](O)C2(F)F)c(=O)n1 | Enterovirus C | viral replication | HeLa | – | – | IC50 | 0.3 µM |
| CC(C)(C)NC(=O)[C@@H](N)Cc1ccc(OP2(=O)CO[C@@H](Cn3ccc(N)nc3=O)CO2)cc1 (some centres unmarked) | cowpox virus | viral replication | – | – | – | IC50 | 20 µM |
| C#Cc1c(C(N)=O)ncn1[C@@H]1O[C@H](CO)[C@@H](O)[C@H]1O | Severe acute respiratory syndrome coronavirus | viral replication, inhibitor | Vero 76 | – | – | IC50 | > 40 µM |
| CC(C)CNC(=O)[C@@H](N)Cc1ccc(OP2(=O)CO[C@@H](Cn3cnc4c(N)ncnc43)CO2)cc1 (some centres unmarked) | vaccinia virus | viral replication | – | – | – | IC50 | 3 µM |
| CCN(CCO)CCCC(C)Nc1ccnc2cc(Cl)ccc12 (centres unmarked) | SARS-CoV-2 Delta | viral replication | Calu-3 | 48 h | – | IC50 | > 100 µM |
| COc1cc2c(OCCCN3CCOCC3)c3c(c(-c4ccc5c(c4)OCO5)c2cc1OC)C(=O)OC3 | VSV pseudotyped with Marburg virus GP | viral entry, refers to: GFP | – | – | – | IC50 | 0.135 ± 0.0114 µM |
| COC(=O)[C@@H](N)Cc1ccc(OP2(=O)CO[C@@H](Cn3cnc4c(N)ncnc43)CO2)cc1 (some centres unmarked) | cowpox virus | viral replication | – | – | – | IC50 | 10 µM and 7 µM |
| CCOC(=O)CN1CCN(CCCOc2c3c(c(-c4ccc5c(c4)OCO5)c4cc(OC)c(OC)cc24)C(=O)OC3)CC1 | VSV pseudotyped with Ebola virus GP | viral entry, refers to: GFP | – | – | – | IC50 | 0.132 ± 0.0323 µM |
| O=C(c1ccc(OCCN2CCCCC2)cc1)c1c(-c2ccc(O)cc2)sc2cc(O)ccc12 | MERS-CoV spike pseudovirus | pseudovirus entry | Huh-7 | 24 h | – | IC50 | 1.1 µM |

Repeated from above:
| Substance | target or system | test | system | setting | scale | endpoint | result |
| --- | --- | --- | --- | --- | --- | --- | --- |
| CC(C)CNC(=O)[C@@H](N)Cc1ccc(OP2(=O)CO[C@@H](Cn3cnc4c(N)ncnc43)CO2)cc1 (some centres unmarked) | vaccinia virus | viral replication | – | – | – | IC50 | 3 µM |
| CN1CCN(C(c2ccccc2)c2ccc(Cl)cc2)CC1 (centres unmarked) | Marburg virus | HIV/MARV pseudovirion entry | A549 | 48 h | – | IC50 | 4.6 ± 0.1 µM |
| CN1CCN(C(c2ccccc2)c2ccccc2)CC1 | Marburg virus | HIV/MARV pseudovirion entry | A549 | 48 h | – | IC50 | 18.9 ± 1.5 µM |
| O=c1[nH]c(Nc2cc(Cl)cc(Cl)c2)nc2cccc(O)c12 | Middle East respiratory syndrome-related coronavirus | viral replication | Vero | – | – | IC50 | < 1.1 µM |
| CCOc1ccc(NC(=O)c2cnn(-c3ccc(C)c(Cl)c3)c2C2CCNCC2)cc1 | SARS-CoV-2 | cytopathic effect, cell-based CPE | USA_WA1/2020 | – | – | AC50 | 14.1 µM |
| COC(=O)[C@@H](N)[C@@H](C)OP1(=O)CO[C@@H](Cn2cnc3c(N)ncnc32)CO1 (some centres unmarked) | vaccinia virus | viral replication | – | – | – | IC50 | 30 µM |
| NC(=O)c1ncn([C@@H]2O[C@H](CO)[C@@H](O)[C@H]2O)c1O | Severe acute respiratory syndrome coronavirus | viral replication, inhibitor | Vero 76 | – | – | IC50 | > 40 µM |
